Results collected from several papers.
Numbered parts are unrelated; each lists some results of a single study. Changes are numbered by the printed parent chain.

Series 1
Target: Interferon regulatory factor 7, full length, phosphomimetic (IRF7, Homo sapiens, UniProt Q92985, residues 1-503, S471D/S472D/S475D/S476D/S477D/S483D/S484D/S487D)
Sequence of UniProt Q92985 (whole entry, unmodified, looked up): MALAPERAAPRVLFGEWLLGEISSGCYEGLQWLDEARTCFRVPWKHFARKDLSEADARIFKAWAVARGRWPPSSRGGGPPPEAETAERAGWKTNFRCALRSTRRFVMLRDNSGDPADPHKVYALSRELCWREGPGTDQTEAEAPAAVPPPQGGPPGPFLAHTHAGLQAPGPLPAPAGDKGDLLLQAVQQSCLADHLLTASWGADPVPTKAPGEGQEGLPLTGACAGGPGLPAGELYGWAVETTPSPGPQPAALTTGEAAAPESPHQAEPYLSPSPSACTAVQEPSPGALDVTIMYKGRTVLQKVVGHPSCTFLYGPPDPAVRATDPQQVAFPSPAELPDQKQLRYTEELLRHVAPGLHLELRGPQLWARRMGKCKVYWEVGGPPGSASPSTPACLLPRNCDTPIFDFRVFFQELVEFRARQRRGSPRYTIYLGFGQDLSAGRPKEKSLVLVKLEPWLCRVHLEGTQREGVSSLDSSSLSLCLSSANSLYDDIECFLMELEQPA
Method: protein-binding microarray
Molecule type: double-stranded DNA, one strand shown
Medium: in vitro
Tested at: 2200 nM top
Notes: 60-bp whole probe
With: salmon DNA 0.4 mg/ml
Reference: random background probes
Reading: higher = stronger binding
Constant ends, left off below: GCCTAGCAC … GTCTTGATTCGCTTGACGCTGCTG
`AACGGACTGGGTCTCGGGACGTGCTAG`: “fitted relative affinity” -0.816 z-score.
`GACGAACTGGGGATTGGAGACGTGCTA`: “fitted relative affinity” 0.00885 z-score.
Under “fitted relative affinity”, `TCACAATTCTCTTTTCAACTGTGCTAG` is recorded as 1.48 z-score.
For `GACGAACTGGGGAATCGAGACGTGCTA`, “fitted relative affinity” read 0.0242 z-score.
`TTAGGTCTCGGACTGGGTTGGTGCTAG`: “fitted relative affinity” -0.341 z-score.
Under “fitted relative affinity”, `GACGGTTTCCGTTCCGGGACGTGCTAG` is recorded as 4.65 z-score.
Under “fitted relative affinity”, `TTAGGTATCCTTTTCCTTTCGTGCTAG` is recorded as 3.12 z-score.
Under “fitted relative affinity”, `TTAGATATGAGACTGGATTAGTGCTAG` is recorded as -0.588 z-score.
`TTAGGTATCCTACGGCTTTAGTGCTAG` — result for “fitted relative affinity”: 0.0779 z-score.
`GACGGTTTCCTTCACCTGACGTGCTAG` — result for “fitted relative affinity”: 1.95 z-score.
`TGAGGTCTCCTTCTCCTTTAGTGCTAG`: “fitted relative affinity” 0.754 z-score.

Series 2
Target: CCNA1, cyclin fold, Cln2 fusion (human)
Method: yeast growth competition, sequencing
Medium: yeast
Notes: weak parent motif
Reference: not given
Reading: higher = stronger binding
Starting sequence: PKN2 docking peptide (human); VSAVQKLDFSDTM; partner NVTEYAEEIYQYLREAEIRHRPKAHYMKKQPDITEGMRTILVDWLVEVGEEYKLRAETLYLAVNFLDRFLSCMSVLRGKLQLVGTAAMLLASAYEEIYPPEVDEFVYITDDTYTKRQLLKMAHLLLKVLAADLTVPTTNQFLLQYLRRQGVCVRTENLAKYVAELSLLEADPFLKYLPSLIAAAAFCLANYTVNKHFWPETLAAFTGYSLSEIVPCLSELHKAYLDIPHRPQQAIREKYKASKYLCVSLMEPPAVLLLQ
For `VSAVQKLDFSDGM [T12G]`, “normalised enrichment score” read 0.526.
`VSAVQLLDFSDTM [K6L]` — result for “normalised enrichment score”: 0.324.
Under “normalised enrichment score”, `VSAVQKLDFSDTY [M13Y]` is recorded as 0.14.
For `VSAVQKLDFSDTN [M13N]`, “normalised enrichment score” read 0.203.
`VSAVQKLDFHDTM [S10H]` — result for “normalised enrichment score”: 0.119.

Series 3
Target: Ras GTPase-activating protein-binding protein 1, C-terminal RGG region (G3BP1, Homo sapiens, UniProt Q13283)
Sequence of UniProt Q13283 (whole entry, looked up): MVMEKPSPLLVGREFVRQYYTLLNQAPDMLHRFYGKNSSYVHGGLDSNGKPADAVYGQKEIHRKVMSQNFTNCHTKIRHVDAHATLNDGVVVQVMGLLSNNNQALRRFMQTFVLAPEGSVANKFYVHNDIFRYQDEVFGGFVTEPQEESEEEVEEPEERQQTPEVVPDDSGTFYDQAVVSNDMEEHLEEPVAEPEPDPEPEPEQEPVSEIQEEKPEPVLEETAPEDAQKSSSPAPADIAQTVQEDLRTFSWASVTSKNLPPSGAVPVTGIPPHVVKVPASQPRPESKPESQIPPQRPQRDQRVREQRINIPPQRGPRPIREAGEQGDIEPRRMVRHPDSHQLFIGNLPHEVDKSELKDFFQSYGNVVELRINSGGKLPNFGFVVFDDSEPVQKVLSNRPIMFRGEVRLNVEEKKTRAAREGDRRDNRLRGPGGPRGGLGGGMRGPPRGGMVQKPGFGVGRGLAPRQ
Method: RNA Bind-n-Seq
Molecule type: RNA
Medium: in vitro
Tested at: 1 µM
Notes: whole 134-nt RNA, ends assumed
With: 150 mM KCl
Reference: input library
Reading: higher = stronger binding
Constant ends, left off below: GGGAGUUCUACAGUCCGACGAUC … UGGAAUUCUCGGGUGUCAAGG
The log2 enrichment of `CCUGUGCUACACAUCGUAUGUACCGAAUCGGGAAAAAAAGGAAAAAAAGGGAAAAAAAGGGAAAGUAUUAUGUUACGCCGUUCGGAUCUG` is reported as -1.9.
`AAACAGCUCUAUAACAAAAUACAAUGCGGGUUCAUGUUAAUGUUUUUAUCUCUAACAGGUUGGUUUCAGUGCUGAUGAAACUUGGGACUC` gave a log2 enrichment of -1.29.
For `UGGAGAUGACAGAAAUGACUGGUGUGUCGCUGAAACGUGGGGCACUGGUUGUCGAAGAUAAUGACAGUGGAGUCCCAGUUGAAGAGACAA`, the log2 enrichment was -2.18.
For `CAAGUCCUGUGCUACACAUCGUAUGUACCGAAUCGGAAAGGGGAAAGGGGAAAGGAAAGUAUUAUGUUACGCCGUUCGGAUCUGCACUUC`, the log2 enrichment was -1.12.
The log2 enrichment of `CAAGUCCUGUGCUACACAUCGUAUGUACCGAAUCGGGCCCGGGGCCCGGGGCCCGGAAAGUAUUAUGUUACGCCGUUCGGAUCUGCACUU` is reported as -2.07.
For `CUCAAGUCCUGUGCUACACAUCGUAUGUACCGAAUCGGAGGUGGAAAAAAAGGAAAGUAUUAUGUUACGCCGUUCGGAUCUGCACUUCCA`, the log2 enrichment was -1.41.
The log2 enrichment of `AGUCCUGUGCUACACAUCGUAUGUACCGAAUCGGUUUUUGGUUUUUUUGGAAAAAGGAAAGUAUUAUGUUACGCCGUUCGGAUCUGCACU` is reported as -2.12.
The log2 enrichment of `GCAGGAAGUAAAAACAAAUGGAAAUGCUUCGGAUAGUGGCAGGGGUGGGGGUUGCUAAGGAAAGGGUGGGAUAAAAGUGGGUAAAGAGUU` is reported as 1.45.

Mixed results
`PhoQ, residues 284 288 289 292 302 303 TGYLSA` has a fold induction of 12.5 (PhoP, residues 12 14 15 18 19 HLGGL (Escherichia coli, UniProt P23836); Sort-seq, measured: YFP reporter; E. coli; PhoQ-PhoP variant library, with: 10 µM Mg2+; reference: high Mg2+ state, higher = stronger signaling).

Some of these lines once more (series 1):
Under “fitted relative affinity”, `TTAGATATGAGACTGGATTAGTGCTAG` is recorded as -0.588 z-score.
Under “fitted relative affinity”, `TCACAATTCTCTTTTCAACTGTGCTAG` is recorded as 1.48 z-score.
